{"data": "Earlier results that unrelated publications cite", "CYP2C19": "Cytochrome P450 2C19 (CYP2C19, Homo sapiens, UniProt P33261)", "note": "Lines come from different studies, so protocols differ. ± marks the error that the study gave.", "sequence of UniProt P33261 (whole entry, looked up)": "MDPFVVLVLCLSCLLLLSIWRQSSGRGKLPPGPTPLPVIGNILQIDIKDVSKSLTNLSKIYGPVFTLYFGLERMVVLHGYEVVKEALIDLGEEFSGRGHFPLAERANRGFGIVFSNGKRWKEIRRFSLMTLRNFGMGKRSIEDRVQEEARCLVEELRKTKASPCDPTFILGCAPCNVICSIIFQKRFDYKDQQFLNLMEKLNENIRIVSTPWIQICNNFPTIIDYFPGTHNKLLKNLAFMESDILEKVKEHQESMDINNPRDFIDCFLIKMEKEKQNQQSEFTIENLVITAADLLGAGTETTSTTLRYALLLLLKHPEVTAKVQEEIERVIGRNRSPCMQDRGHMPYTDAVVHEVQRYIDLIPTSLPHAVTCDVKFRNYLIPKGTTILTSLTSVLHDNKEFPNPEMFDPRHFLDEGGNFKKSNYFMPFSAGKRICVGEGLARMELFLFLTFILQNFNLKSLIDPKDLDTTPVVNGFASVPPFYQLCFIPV", "sequence of UniProt P20618 (whole entry, looked up)": "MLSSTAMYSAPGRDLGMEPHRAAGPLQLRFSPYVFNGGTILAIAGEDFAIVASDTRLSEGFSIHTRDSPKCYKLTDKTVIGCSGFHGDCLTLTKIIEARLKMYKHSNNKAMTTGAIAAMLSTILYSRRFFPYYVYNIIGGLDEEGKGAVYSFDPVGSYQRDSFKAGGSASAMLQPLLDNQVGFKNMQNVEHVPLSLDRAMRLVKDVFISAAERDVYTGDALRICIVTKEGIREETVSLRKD", "sequence of UniProt Q9Y2U5 (whole entry, looked up)": "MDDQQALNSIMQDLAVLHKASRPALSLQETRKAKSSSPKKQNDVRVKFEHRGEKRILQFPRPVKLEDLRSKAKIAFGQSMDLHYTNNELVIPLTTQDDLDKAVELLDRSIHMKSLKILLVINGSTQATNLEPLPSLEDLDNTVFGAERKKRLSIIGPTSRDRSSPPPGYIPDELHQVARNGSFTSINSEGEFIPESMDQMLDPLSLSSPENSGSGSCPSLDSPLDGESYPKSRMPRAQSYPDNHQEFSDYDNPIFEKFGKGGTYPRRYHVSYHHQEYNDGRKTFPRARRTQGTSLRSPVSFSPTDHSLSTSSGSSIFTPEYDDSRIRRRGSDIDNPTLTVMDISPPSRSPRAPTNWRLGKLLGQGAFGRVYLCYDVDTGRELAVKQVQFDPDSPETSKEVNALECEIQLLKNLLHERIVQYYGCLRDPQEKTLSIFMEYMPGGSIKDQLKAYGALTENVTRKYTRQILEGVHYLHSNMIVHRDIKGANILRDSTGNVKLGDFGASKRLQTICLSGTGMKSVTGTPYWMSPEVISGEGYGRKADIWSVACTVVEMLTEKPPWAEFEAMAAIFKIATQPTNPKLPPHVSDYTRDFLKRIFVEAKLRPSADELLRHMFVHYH", "sequence of UniProt P11166 (whole entry, looked up)": "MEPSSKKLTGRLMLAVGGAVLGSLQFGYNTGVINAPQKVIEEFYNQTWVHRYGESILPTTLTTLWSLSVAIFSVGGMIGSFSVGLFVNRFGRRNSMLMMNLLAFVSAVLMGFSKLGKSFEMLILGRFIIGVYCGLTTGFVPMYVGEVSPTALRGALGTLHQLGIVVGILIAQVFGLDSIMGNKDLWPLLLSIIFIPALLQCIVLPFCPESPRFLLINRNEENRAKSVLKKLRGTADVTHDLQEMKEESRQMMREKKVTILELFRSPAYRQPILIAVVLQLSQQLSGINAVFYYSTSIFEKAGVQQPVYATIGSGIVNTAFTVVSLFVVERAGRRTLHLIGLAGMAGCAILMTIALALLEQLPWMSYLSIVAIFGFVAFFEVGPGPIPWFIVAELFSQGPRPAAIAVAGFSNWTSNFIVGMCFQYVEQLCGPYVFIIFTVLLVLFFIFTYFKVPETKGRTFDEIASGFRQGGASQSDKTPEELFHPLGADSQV", "sequence of UniProt P28074 (whole entry, looked up)": "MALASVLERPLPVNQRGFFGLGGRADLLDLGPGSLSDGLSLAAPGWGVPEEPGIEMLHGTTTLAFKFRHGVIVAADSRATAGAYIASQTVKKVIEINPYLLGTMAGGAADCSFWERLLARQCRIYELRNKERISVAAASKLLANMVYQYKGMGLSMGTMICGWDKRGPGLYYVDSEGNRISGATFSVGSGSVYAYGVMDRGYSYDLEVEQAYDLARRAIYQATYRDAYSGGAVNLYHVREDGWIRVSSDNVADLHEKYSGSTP", "sequence of UniProt O14757 (whole entry, looked up)": "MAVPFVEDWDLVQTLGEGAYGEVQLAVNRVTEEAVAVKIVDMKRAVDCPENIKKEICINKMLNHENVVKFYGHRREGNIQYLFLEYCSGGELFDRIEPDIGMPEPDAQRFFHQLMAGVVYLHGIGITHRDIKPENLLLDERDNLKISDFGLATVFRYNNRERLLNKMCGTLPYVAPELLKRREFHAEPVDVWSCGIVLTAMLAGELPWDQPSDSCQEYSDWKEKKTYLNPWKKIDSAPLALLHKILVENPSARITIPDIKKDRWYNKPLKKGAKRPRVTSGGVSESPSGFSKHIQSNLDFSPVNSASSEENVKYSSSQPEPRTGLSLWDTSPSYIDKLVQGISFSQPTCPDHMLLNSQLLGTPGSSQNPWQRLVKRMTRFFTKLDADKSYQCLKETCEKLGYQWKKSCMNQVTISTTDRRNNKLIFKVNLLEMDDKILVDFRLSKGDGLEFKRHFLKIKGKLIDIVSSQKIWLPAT", "sequence of UniProt P27338 (whole entry, looked up)": "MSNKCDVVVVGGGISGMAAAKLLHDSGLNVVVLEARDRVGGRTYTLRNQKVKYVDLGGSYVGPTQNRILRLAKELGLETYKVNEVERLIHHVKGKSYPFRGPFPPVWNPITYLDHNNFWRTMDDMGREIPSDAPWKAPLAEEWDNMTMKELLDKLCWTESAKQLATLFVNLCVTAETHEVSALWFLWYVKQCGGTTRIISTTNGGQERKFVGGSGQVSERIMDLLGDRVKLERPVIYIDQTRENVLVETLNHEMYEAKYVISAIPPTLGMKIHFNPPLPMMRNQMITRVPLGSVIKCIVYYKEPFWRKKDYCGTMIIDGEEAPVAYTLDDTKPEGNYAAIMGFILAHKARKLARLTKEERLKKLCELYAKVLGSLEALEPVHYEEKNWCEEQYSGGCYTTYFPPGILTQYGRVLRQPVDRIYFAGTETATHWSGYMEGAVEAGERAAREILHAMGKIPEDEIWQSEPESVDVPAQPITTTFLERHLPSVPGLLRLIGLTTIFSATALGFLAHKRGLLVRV", "sequence of UniProt Q9BZ95 (whole entry, looked up)": "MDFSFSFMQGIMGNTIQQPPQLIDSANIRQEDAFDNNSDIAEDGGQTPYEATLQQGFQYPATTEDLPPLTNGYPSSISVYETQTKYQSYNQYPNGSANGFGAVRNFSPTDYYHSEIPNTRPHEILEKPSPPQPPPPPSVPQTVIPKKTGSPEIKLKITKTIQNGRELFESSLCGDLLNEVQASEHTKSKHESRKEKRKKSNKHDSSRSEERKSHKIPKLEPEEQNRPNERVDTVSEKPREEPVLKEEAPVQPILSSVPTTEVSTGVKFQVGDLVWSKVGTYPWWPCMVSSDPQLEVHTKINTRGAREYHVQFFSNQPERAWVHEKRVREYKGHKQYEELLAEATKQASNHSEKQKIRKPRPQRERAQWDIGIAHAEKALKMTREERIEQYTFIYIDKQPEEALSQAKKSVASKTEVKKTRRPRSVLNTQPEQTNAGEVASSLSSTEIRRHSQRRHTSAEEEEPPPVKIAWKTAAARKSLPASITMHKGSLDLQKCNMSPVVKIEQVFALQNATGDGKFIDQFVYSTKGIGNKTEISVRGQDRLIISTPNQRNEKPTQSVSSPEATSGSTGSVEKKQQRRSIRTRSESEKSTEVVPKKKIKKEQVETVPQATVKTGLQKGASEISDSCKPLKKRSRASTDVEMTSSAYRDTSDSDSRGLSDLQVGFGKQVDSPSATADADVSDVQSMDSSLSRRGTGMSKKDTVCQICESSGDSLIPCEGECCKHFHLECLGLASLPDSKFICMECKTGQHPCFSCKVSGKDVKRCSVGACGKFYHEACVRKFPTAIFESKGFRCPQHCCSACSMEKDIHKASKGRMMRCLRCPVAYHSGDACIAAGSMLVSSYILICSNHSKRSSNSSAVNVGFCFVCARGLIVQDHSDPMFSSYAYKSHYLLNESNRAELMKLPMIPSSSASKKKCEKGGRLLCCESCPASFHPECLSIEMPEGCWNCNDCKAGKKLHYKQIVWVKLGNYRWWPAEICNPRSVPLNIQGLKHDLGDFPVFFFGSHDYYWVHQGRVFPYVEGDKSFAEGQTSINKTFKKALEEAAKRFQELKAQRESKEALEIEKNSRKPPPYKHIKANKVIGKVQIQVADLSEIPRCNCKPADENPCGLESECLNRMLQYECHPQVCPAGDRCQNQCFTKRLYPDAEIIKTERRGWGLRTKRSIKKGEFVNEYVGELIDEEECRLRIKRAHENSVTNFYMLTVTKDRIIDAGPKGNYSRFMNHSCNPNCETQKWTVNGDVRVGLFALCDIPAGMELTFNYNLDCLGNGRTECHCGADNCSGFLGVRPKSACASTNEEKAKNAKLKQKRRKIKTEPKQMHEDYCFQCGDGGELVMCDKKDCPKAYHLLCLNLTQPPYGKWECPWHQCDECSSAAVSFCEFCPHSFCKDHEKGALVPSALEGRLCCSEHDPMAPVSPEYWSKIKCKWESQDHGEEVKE", "sequence of UniProt Q96GD4 (whole entry, looked up)": "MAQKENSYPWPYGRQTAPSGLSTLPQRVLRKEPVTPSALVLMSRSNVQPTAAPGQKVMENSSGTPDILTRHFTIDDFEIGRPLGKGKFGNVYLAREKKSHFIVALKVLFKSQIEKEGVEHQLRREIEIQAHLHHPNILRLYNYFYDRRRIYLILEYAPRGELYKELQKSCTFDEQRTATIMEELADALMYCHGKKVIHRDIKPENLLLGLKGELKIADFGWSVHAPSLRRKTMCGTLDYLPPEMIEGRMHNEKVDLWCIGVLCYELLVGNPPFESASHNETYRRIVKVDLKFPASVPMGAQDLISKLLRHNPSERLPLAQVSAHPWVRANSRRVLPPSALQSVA"}
{"SMILES": "Ic1ccc(CSCn2ccnc2)cc1", "target or system": "CYP2C19", "assay": "inhibitor", "endpoint": "IC50", "result": "0.037 µM"}
{"SMILES": "O=C(Oc1cccc(F)c1OC(=O)c1cccc(O)c1)c1cccc(O)c1", "target or system": "Solute carrier family 2, facilitated glucose transporter member 1 (SLC2A1, Homo sapiens, UniProt P11166)", "assay": "glucose uptake", "system": "H1299", "endpoint": "IC50", "result": "10.9 µM"}
{"SMILES": "O=C(/C=C/c1ccc(O)c(O)c1/C=C/c1ccc(O)c(O)c1)O[C@H](Cc1ccc(O)c(O)c1)C(=O)O", "target or system": "sortase A (Staphylococcus aureus)", "assay": "inhibitor", "system": "Staphylococcus aureus", "endpoint": "IC50", "result": "5.75 mg/L"}
{"SMILES": "Nc1cc(C(F)(F)F)c(-c2nc(N3CCOCC3)nc(N3CCOCC3)n2)cn1", "target or system": "Mitogen-activated protein kinase kinase kinase 2 (MAP3K2, Homo sapiens, UniProt Q9Y2U5)", "assay": "enzyme activity", "setting": "10 µM", "how to read": "relative to: untreated", "endpoint": "remaining activity", "result": "100%"}
{"SMILES": "O=C1c2c(O)cc(O)cc2OCC1c1ccc(O)cc1O (stereo not drawn)", "target or system": "tyrosinase", "assay": "inhibitor", "endpoint": "IC50", "result": "20 ± 3.5 µM"}
{"SMILES": "C=CC(=O)N1CCC(C(=O)NCC(=O)N2CCN(c3nc(-c4cnc(N)nc4C(F)F)nc(N4CCOCC4)n3)CC2)CC1", "target or system": "Phosphatidylinositol 4,5-bisphosphate 3-kinase catalytic subunit alpha isoform (PIK3CA, Homo sapiens, UniProt P42336, E545K)", "assay": "kinase activity", "setting": "1 µM", "endpoint": "remaining activity", "result": "0%"}
{"SMILES": "COc1ccc(C[C@H](N)C(=O)N[C@H]2[C@@H](O)[C@H](n3cnc4c(N(C)C)ncnc43)O[C@@H]2CO)cc1", "target or system": "neuron-specific aminopeptidase (NAP)", "assay": "enzyme activity, inhibitor", "endpoint": "IC50", "result": "1 µM"}
{"SMILES": "C[C@H]1COCCN1c1nc(-c2cnc(N)cc2C(F)F)nc(N2CCOCC2)n1", "target or system": "T24", "endpoint": "GI50", "result": "0.593 µM"}
{"SMILES": "O=C(O)c1cc(O)c(O)c(O)c1", "target or system": "tyrosinase", "assay": "inhibitor", "endpoint": "IC50", "result": "> 100 µM"}
{"SMILES": "Cc1c(C#N)cccc1[C@@H](C)Nc1nnc(C)c2cnc(N3CCOCC3)cc12", "target or system": "NCI-H1975", "assay": "3D cell viability", "setting": "14 d", "endpoint": "IC50", "result": "0.0152 ± 0.008 µM"}
{"SMILES": "C[N+]1(C)CCC(OC(=O)C(c2ccccc2)c2ccccc2)CC1", "target or system": "Muscarinic acetylcholine receptor M1 (CHRM1, Homo sapiens, UniProt P11229)", "assay": "inhibitor, radioligand binding", "endpoint": "IC50", "result": "0.0045 µM"}
{"SMILES": "C#CCOc1ccccc1CCCCCC(=O)O", "target or system": "CYP2C19", "assay": "inhibitor", "endpoint": "IC50", "result": "300 µM"}
{"SMILES": "O=C(O)c1cc(O)c2c(c1)C(=O)c1cc(O)cc(O)c1C2=O", "target or system": "Amine oxidase [flavin-containing] B (MAOB, Homo sapiens, UniProt P27338)", "endpoint": "IC50", "result": "54.7 ± 0.74 µM"}
{"SMILES": "Oc1ccc(/C=C/c2cc(O)cc(O)c2)cc1", "target or system": "tyrosinase", "assay": "inhibitor", "endpoint": "IC50", "result": "7.2 µM"}
{"SMILES": "COc1cc(N)c(Cl)cc1NC(=O)Nc1cnc(C#N)cn1", "target or system": "Serine/threonine-protein kinase Chk1 (CHEK1, Homo sapiens, UniProt O14757)", "assay": "inhibitor", "endpoint": "IC50", "result": "0.005 µM"}
{"SMILES": "C=CCn1c(=O)c2cnc(Nc3ccc(N4CCN(C)CC4)cc3)nc2n1-c1ccc2c(n1)[C@@](O)(CC)CC2", "target or system": "Serine/threonine-protein kinase PLK1 (PLK1, Homo sapiens, UniProt P53350)", "endpoint": "IC50", "result": "0.227 µM"}
{"SMILES": "COC(=O)c1cc(O)c(O)c(O)c1", "target or system": "tyrosinase", "assay": "inhibitor", "endpoint": "IC50", "result": "> 100 µM"}
{"SMILES": "COc1ccc(C(N)=O)cn1", "target or system": "Nicotinamide N-methyltransferase (NNMT, Homo sapiens, UniProt P40261)", "assay": "inhibitor", "endpoint": "IC50", "result": "2.45 ± 0.08 µM"}
{"SMILES": "CC1=C[C@@]2(C[C@H](C)[C@H]3CC=C(C)C(=O)[C@@H]3O2)OC1=O", "target or system": "PTP1B", "assay": "inhibitor", "endpoint": "IC50", "result": "40.4 µM"}
{"SMILES": "OC(Cn1cncn1)(Cn1cncn1)c1ccc(F)cc1F", "target or system": "aromatase (CYP19A1)", "endpoint": "IC50", "result": "~26.8 µM"}
{"SMILES": "CN(C)C(=O)c1cc2cnc(Nc3ccc(N4CCNCC4)cn3)nc2n1C1CCCC1", "system": "monkey and rodents", "endpoint": "terminal half-life", "result": "2 to 5 h"}
{"SMILES": "CNC(C)C1CCC(N)C(OC2C(N)CC(N)C(OC3OCC(C)(O)C(NC)C3O)C2O)O1 (stereo not drawn)", "target or system": "Pseudomonas aeruginosa", "system": "clinical isolate RKI-No_221/16", "endpoint": "MIC", "result": "4 mg/L"}
{"SMILES": "CC1=C(/C=C/C(C)=C/C=C/C(C)=C\\C(=O)O)C(C)(C)CCC1", "target or system": "PTP1B", "endpoint": "IC50", "result": "44 µM"}
{"SMILES": "CCn1cc(-c2ccnc3[nH]c(-c4cccc(CN(C)C)c4)cc23)c(-c2ccc(NC(=O)N(C)C)cc2)n1", "target or system": "Aurora kinase B (AURKB, Homo sapiens, UniProt Q96GD4)", "assay": "kinase activity, inhibitor", "endpoint": "IC50", "result": "0.00038 µM"}
{"SMILES": "CCN(c1cc(-c2ccc(CN3CCOCC3)cc2)cc(C(=O)NCc2c(C)cc(C)[nH]c2=O)c1C)C1CCOCC1", "target or system": "Histone-lysine N-methyltransferase NSD3 (NSD3, Homo sapiens, UniProt Q9BZ95)", "assay": "enzyme activity, inhibitor", "setting": "1 µM", "endpoint": "inhibition", "result": "9 ± 8%"}
{"SMILES": "O=C(OC[C@H]1O[C@@H](OC(=O)c2cc(O)c(O)c(O)c2)[C@H](OC(=O)c2cc(O)c(O)c(O)c2)[C@@H](OC(=O)c2cc(O)c(O)c(O)c2)[C@@H]1OC(=O)c1cc(O)c(O)c(O)c1)c1cc(O)c(O)c(O)c1", "target or system": "tyrosinase", "assay": "inhibitor", "endpoint": "IC50", "result": "15 µM"}
{"SMILES": "Cc1cc(NC(=O)c2cccc(NC(=O)/C=C/CN(C)C)c2)ccc1Nc1nccc(-c2cccnc2)n1", "target or system": "Serine/threonine-protein kinase 3 (STK3, Homo sapiens, UniProt Q13188)", "assay": "enzyme activity, inhibitor", "setting": "1 µM", "how to read": "relative to: vehicle", "endpoint": "remaining activity", "result": "48%"}
{"SMILES": "O=C(/C=C/c1ccccc1)c1ccccc1", "target or system": "sortase A, Staphylococcus aureus", "assay": "inhibitor", "endpoint": "IC50", "result": "53.1 µM"}
{"SMILES": "COc1cc(O)c(CC=C(C)C)c(O)c1C(=O)/C=C/c1ccc(O)cc1", "target or system": "Xenopus laevis deiodinase type 3", "endpoint": "IC50", "result": "0.31 ± 0.06 µM"}
{"SMILES": "COCC(=O)N1CCC[C@H](C(=O)NCc2nc(-c3ccccc3)cs2)C1", "target or system": "PSMB1/PSMB5/PSMB3 (Homo sapiens, UniProt P20618+P28074+P49720)", "assay": "enzyme activity, inhibitor", "endpoint": "IC50", "result": "> 30 µM"}
{"SMILES": "CC1(C)S[C@@H]2[C@H](NC(=O)[C@H](N)c3ccccc3)C(=O)N2[C@H]1C(=O)O", "target or system": "Pseudomonas aeruginosa", "system": "clinical isolate RKI-No_321/16", "endpoint": "MIC", "result": "> 16 mg/L"}
{"SMILES": "CCCN(CCC)S(=O)(=O)c1ccc(C(=O)O)cc1", "assay": "substrate uptake, inhibitor", "system": "human kidney slices", "setting": "10 min, together with: benzylpenicillin 0.1 µM", "endpoint": "Ki", "result": "3 µM"}
{"SMILES": "CC(=O)N1CCc2c(c(N3CCCc4cc(-c5cnn(C)c5)c(C(F)F)cc43)nn2C2CCOCC2)C1", "target or system": "Bromodomain-containing protein 4, BD1 (BRD4, Homo sapiens, UniProt O60885)", "assay": "biochemical", "setting": "bromodomain 1", "endpoint": "IC50", "result": "0.241 µM"}
{"note": "Repeated from above:"}
{"SMILES": "CCN(c1cc(-c2ccc(CN3CCOCC3)cc2)cc(C(=O)NCc2c(C)cc(C)[nH]c2=O)c1C)C1CCOCC1", "target or system": "Histone-lysine N-methyltransferase NSD3 (NSD3, Homo sapiens, UniProt Q9BZ95)", "assay": "enzyme activity, inhibitor", "setting": "1 µM", "endpoint": "inhibition", "result": "9 ± 8%"}
{"SMILES": "O=C(OC[C@H]1O[C@@H](OC(=O)c2cc(O)c(O)c(O)c2)[C@H](OC(=O)c2cc(O)c(O)c(O)c2)[C@@H](OC(=O)c2cc(O)c(O)c(O)c2)[C@@H]1OC(=O)c1cc(O)c(O)c(O)c1)c1cc(O)c(O)c(O)c1", "target or system": "tyrosinase", "assay": "inhibitor", "endpoint": "IC50", "result": "15 µM"}
{"SMILES": "Cc1cc(NC(=O)c2cccc(NC(=O)/C=C/CN(C)C)c2)ccc1Nc1nccc(-c2cccnc2)n1", "target or system": "Serine/threonine-protein kinase 3 (STK3, Homo sapiens, UniProt Q13188)", "assay": "enzyme activity, inhibitor", "setting": "1 µM", "how to read": "relative to: vehicle", "endpoint": "remaining activity", "result": "48%"}
{"SMILES": "O=C(/C=C/c1ccccc1)c1ccccc1", "target or system": "sortase A, Staphylococcus aureus", "assay": "inhibitor", "endpoint": "IC50", "result": "53.1 µM"}
